Published values of several laboratories.
Every numbered part comes from another study and shows a few of its results, in no order.

Series 1
Target: Histone acetyltransferase KAT6A, winged helix 1, GST fusion (KAT6A, Homo sapiens, UniProt Q92794, residues 1-85)
Method: protein binding microarray
Molecule type: double-stranded DNA, one strand shown
Medium: in vitro
Concentration: not given
Notes: 8-mer, flanks averaged, mean of 2 arrays, mostly near background
Baseline: not given
Direction: higher = stronger binding
Construct (chain): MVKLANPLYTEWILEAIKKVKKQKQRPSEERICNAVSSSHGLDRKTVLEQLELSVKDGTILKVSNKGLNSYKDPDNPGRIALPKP
The E-score of `TAAGCGAA` is reported as 0.0168.
`AGTTGGGA` has an E-score of -0.173.
For `AGATACGG`, the E-score was 0.153.

Series 2
Target: Centromere-binding protein 1, full length, N-terminal tag (CBF1, Saccharomyces cerevisiae, UniProt P17106, residues 1-351)
Chain of UniProt P17106 (whole entry, looked up): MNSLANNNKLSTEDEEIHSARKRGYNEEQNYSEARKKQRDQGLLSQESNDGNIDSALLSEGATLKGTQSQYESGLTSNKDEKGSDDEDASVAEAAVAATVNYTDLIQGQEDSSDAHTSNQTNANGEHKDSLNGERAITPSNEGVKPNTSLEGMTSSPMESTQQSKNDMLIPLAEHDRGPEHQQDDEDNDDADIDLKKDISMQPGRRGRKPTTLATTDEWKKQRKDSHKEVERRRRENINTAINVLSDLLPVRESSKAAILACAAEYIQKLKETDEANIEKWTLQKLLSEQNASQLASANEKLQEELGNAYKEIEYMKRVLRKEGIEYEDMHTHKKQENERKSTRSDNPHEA
Method: protein-binding microarray
Molecule type: double-stranded DNA, one strand shown
Medium: in vitro
Concentration: 0.8 µM
Notes: whole 60-bp probe, no competitor
Direction: higher = stronger binding
`GAAATATACCACAGTAACGTGCAGGTAAAACATTAGGTCTTGATTCGCTTGACGCTGCTG` gave a fluorescence intensity of 851 a.u.
`GAAAGGAAAACTCATGTGAGTGTGACGTTACCGTAGGTCTTGATTCGCTTGACGCTGCTG` gave a fluorescence intensity of 596 a.u.
With `TGTACGAAGCTATGTTTCATCAGTATAGTAGTTAGGGTCTTGATTCGCTTGACGCTGCTG` the fluorescence intensity was 526 a.u.

Series 3
Target: PABPC1L2, full length, GST fusion (mouse, UniProt A0ABA7IW68)
Method: RNAcompete
Molecule type: RNA
Medium: in vitro
Concentration: 20 nM
Notes: 7-mer, probes averaged, single round
Baseline: mean of 7-mers
Direction: higher = stronger binding
Target sequence (chain): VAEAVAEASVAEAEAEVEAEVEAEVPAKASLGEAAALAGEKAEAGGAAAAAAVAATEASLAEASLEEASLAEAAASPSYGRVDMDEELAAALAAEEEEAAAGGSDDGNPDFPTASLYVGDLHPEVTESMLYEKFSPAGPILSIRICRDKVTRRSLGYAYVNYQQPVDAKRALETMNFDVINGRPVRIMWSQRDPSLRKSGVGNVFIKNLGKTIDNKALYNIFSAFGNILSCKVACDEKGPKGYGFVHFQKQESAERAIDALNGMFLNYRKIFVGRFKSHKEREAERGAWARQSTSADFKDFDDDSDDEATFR
`GUAUGAG` has a 7-mer Z-score of -0.226.
The 7-mer Z-score of `AGAACAG` is reported as 0.109.
With `CGCUUGA` the 7-mer Z-score was -0.179.
For `GCGGUAG`, the 7-mer Z-score was 0.0895.

Mixed results
`PhoQ, residues 284 288 289 292 302 303 ASASEQ` has a fold induction of 1.04 (PhoP, residues 12 14 15 18 19 SGWQI (Escherichia coli, UniProt P23836); Sort-seq, item: YFP reporter; E. coli; PhoQ-PhoP variant library, together with: 10 µM Mg2+; baseline: high Mg2+ state, higher = stronger signaling).

Repeated from above (series 1):
`AGTTGGGA` has an E-score of -0.173.
For `AGATACGG`, the E-score was 0.153.
